Measurements collected from several papers.
Each line is one published result; not all experiments were run side by side. Numbers after ± are the reported error.

SMILES	test	system	conditions	scale	quantity	result
CC(C)c1cnc(-c2cc(Cl)ccc2F)cc1Nc1ccncc1C(=O)NC(CO)CO	SMAD2 phosphorylation	mouse, 4T1 tumour, tumour	30 mg/kg twice daily then once, 0 to 8 h after last dose, normalized average		inhibition	60%
COc1ccc(C2CC(c3ccc(C)cc3)=Nc3ccccc3S2)cc1OC (stereo not drawn)		Wistar rat, STZ-induced diabetes	oral, 20 mg/kg once daily, day 1		body weight	192 ± 4.91 g
NS(=O)(=O)NCC(F)(F)c1ccccc1F	6 Hz seizures	mouse	intraperitoneal		ED50	19 mg/kg
CCCOC(=O)Cc1c(C)n(C(=O)c2ccc(Cl)cc2)c2ccc(OC)cc12	hot plate test	BALB/c mice	75 mg/kg, 90 min		latency of nociceptive response	15.2 ± 1.11 s
COc1ccc(C2CC(c3ccc(C)cc3)=Nc3ccccc3S2)cc1 (stereo not drawn)		Wistar rat, STZ-induced diabetes, serum	10 mg/kg, 28 days		AST (SGOT)	24 ± 2.11 IU/L
CCn1cnc(C[C@H](NC(=O)c2nccnc2N)C(=O)N2CCC[C@H]2C(N)=O)c1		Swiss albino mice	iv, 10 µmol/kg, added: pentobarbital 50 mg/kg ip	baseline: control	sleeping time reduction	49.8%
CC/C=C\C/C=C\C/C=C\C/C=C\C/C=C\CCCCOC(CC)C(=O)O (stereo not drawn)		APOE*3Leiden.CETP mice, high-fat/cholesterol diet	dose not given, 20 weeks	baseline: control	hepatic diacylglycerols	decreased
C[C@@H](NC(=O)Cc1ccc(Cl)c(SC2C(=O)CC(c3c(Cl)cccc3Cl)CC2=O)c1)c1cccc2ccccc12 (stereo partly drawn)	flow cytometry	C57BL/6 mice, B16-F10 melanoma allograft, tumour	intratumoral, 50 mg/kg/day, 7 days		IFN-γ+ CD8+ T cells	no effect
CC(C)[C@H](NC(=O)CN)C(=O)N[C@@H](CCCCN)C(=O)NCC(=O)N[C@@H](CC(=O)O)C(=O)N[C@@H](CCCCN)C(=O)NCC(=O)N[C@@H](CC(N)=O)C(=O)N1CCC[C@H]1C(=O)NCC(=O)N[C@@H](Cc1c[nH]c2ccccc12)C(=O)N1CCC[C@H]1C(=O)NCC(=O)N[C@@H](C)C(=O)N1CCC[C@H]1C(=O)O		SCC-9 squamous cell carcinoma, human	100 µg/mL coating, peptide-coated plates		spreading cells	0%
Cc1ccc(S(=O)(=O)N(CCc2nnc(S)o2)c2ccc(Cl)cc2)cc1	analgesic activity, tail flick test	rat	75 mg/kg		protection	110%
Cc1nc(C)c(C=[N+]([O-])C(C)(C)C)nc1C	Western blot, item: PGC-1α	mouse, MPTP model, substantia nigra cytosol	30 mg/kg		protein level increase	50.1%
CC[C@H]1[C@@H](O)[C@@H]2[C@H](CC[C@]3(C)[C@@H]([C@H](C)CCOS(=O)(=O)[O-])CC[C@@H]23)[C@@]2(C)CC[C@@H](O)C[C@@H]12.[Na+]	EchoMRI	ob/ob NASH mouse model	oral, 3 mg/kg once daily, 8 weeks		whole-body fat mass	21 ± 0.7 g
CC(NCCc1nsc2ccccc12)c1cccc2c1OCO2 (stereo not drawn)	PTH secretion inhibition	C57BL/6 mouse, ex vivo parathyroid glands	added: extracellular Ca2+ 0.75 mM		IC50	583 nM
C=C(c1ccc(C(=O)O)c(F)c1)c1cc2c(cc1C)C(C)(C)C=CC2(C)C	RNA sequencing, item: Lrrc4c mRNA	rat, brain	dose not given, 24 h, single dose	baseline: vehicle	log2 fold change	-0.35
CSCC[C@@H]1NC(=O)[C@H](CCCCN)NC(=O)[C@H]([C@@H](C)O)NC(=O)[C@H](CCCCN)NC(=O)[C@H](CC(C)C)NC(=O)[C@H](CCCCN)NC(=O)[C@H](CCCNC(=N)N)NC(=O)[C@@H]2CSSC[C@@H]3NC(=O)[C@@H]4CCCN4C(=O)[C@H](C(C)C)NC(=O)[C@H](CCC(N)=O)NC(=O)[C@H](CCC(N)=O)NC(=O)CNC(=O)[C@H](CC(C)C)NC(=O)[C@@H]4CSSC[C@H](NC(=O)[C@H]([C@@H](C)O)NC(=O)[C@H](C)NC(=O)[C@H](CSSC[C@@H](C(=O)N[C@@H](CO)C(=O)N[C@@H](CCCNC(=N)N)C(=O)N[C@H](C(N)=O)[C@@H](C)O)NC(=O)[C@@H]5CCCN5C(=O)[C@H](CC(N)=O)NC1=O)NC(=O)[C@@H]1CCCN1C(=O)[C@H](CC(=O)O)NC(=O)[C@H](CSSC[C@H](NC(=O)[C@H](CCCNC(=N)N)NC(=O)[C@H](CCCNC(=N)N)NC(=O)[C@H](CO)NC(=O)[C@@H](N)CO)C(=O)N[C@@H](C(C)C)C(=O)N[C@@H](CCCNC(=N)N)C(=O)N[C@@H](CC(C)C)C(=O)N[C@@H](Cc1c[nH]cn1)C(=O)N[C@@H](CCC(=O)O)C(=O)N[C@@H](CO)C(=O)N4)NC3=O)C(=O)N[C@@H](Cc1ccc(O)cc1)C(=O)N[C@H]1CSSC[C@H](NC(=O)[C@H](Cc3ccccc3)NC(=O)[C@H](C)NC(=O)[C@H](CC(N)=O)NC(=O)[C@H](Cc3ccccc3)NC(=O)[C@H](Cc3ccccc3)NC(=O)[C@H](CCCNC(=N)N)NC1=O)C(=O)N[C@@H](Cc1ccc(O)cc1)C(=O)N2		Long-Evans rat, male	intracerebroventricular, 1.0 nmol, 5 days		body weight change	25.2 ± 3.5 g
C=C(c1cc(F)c(C(=O)O)c(F)c1)c1cc2c(cc1C)C(C)(C)CCC2(C)C	RNA sequencing, item: Cyp26a1 mRNA	rat, brain	dose not given, 24 h, single dose	baseline: vehicle	log2 fold change	1
Cc1cc(O)c(C=O)c2c1C(=O)Oc1c(CO)c(O)c3c(c1O2)C(O)OC3=O (stereo not drawn)		rat male, streptozotocin diabetic	10 mg/kg, 5 weeks		body weight	173 ± 5.5 g
CC12CC(O)C3CC1(OC1OC(CO)C(O)C(O)C1O)C3(COC(=O)c1ccccc1)C(=O)O2 (stereo not drawn)		mice, reserpine-induced depression	7 mg/kg, 7 days, within 15 s		out-circle rate	40%
Cc1c(C(=O)Nc2ccn(C)n2)ncn1Cc1cccc(C(F)(F)F)c1	qPCR	human αS transgenic mouse, cortex	dose not given, 120 days	baseline: placebo	SNCA mRNA level	no effect
N#Cc1[nH]nnc1-c1cccc(Oc2ccccc2)c1		ZDF rat, male	oral, twice daily, 200 mg/kg/day, one week		HbA1c elevation suppression	0.73%
CC[C@H](C)[C@@H]1NC(=O)[C@H](Cc2ccc(O)cc2)NC(=O)[C@@H](N)CSSC[C@@H](C(=O)N2CCC[C@H]2C(=O)N[C@@H](CCCCNC(=O)COCCOCCNC(=O)COCCOCCNC(=O)CC[C@H](NC(=O)CC[C@H](NC(=O)CCCCCCCCCCCCCCCCC(=O)O)C(=O)O)C(=O)O)C(=O)NCC(N)=O)NC(=O)[C@H](CC(N)=O)NC(=O)[C@H](CCC(N)=O)NC1=O		C57BL/6 mice, diet-induced obese	subcutaneous, 2 µmol/kg daily, 14 days		cumulative food intake	27 ± 1 g
CCCCCCCOC(=O)Cc1c(C)n(C(=O)c2ccc(Cl)cc2)c2ccc(OC)cc12	hot plate test	BALB/c mice	50 mg/kg, 60 min		latency of nociceptive response	15.4 ± 1.09 s
CN1Cc2c(Cl)cc(Cl)cc2C(c2ccc(S(=O)(=O)NCCOCCOCCOCCNC(=O)C(O)C(O)C(=O)NCCOCCOCCOCCNS(=O)(=O)c3ccc(C4CN(C)Cc5c(Cl)cc(Cl)cc54)cc3)cc2)C1 (stereo not drawn)		Sprague Dawley rats	oral, 3 mg/kg, 16 h	higher = more watery	stool form score	3
CCCCCC(O)C=CC1OC2OC(C2F)C1CC=CCCCC(=O)O (stereo not drawn)	platelet aggregation, agonist, light transmission aggregometry	human platelet-rich plasma			EC50	1580 nM
CC(=O)[C@]12NC(C)(C)C[C@@]1(C)C(=O)C1=C2c2c(c3c4n2C(C)(C)CC2=C4[C@@]4(CC(C)(C)N[C@@](C)(C4)C2=O)CC3(C)C)C(=O)C(C)(C)N1 (racemic)	acetic acid-induced writhing	mouse	intraperitoneal, 5 mg/kg, 0.5 h, writhes counted over 30 min		inhibition	93.1 ± 0.8%
COC(=O)[C@H](CSSC(C)(C)[C@H](NC(=O)[C@H](CCC(=O)NC[C@H](O)[C@@H](O)[C@H](O)[C@H](O)CO)NC(=O)[C@H](CCC(=O)O)NC(=O)[C@H](CCC(=O)NC[C@H](O)[C@@H](O)[C@H](O)[C@H](O)CO)NC(=O)[C@H](CCC(=O)O)NC(=O)[C@H](CCC(=O)NC[C@H](O)[C@@H](O)[C@H](O)[C@H](O)CO)NC(=O)CC[C@H](NC(=O)c1ccc(NCc2cnc3nc(N)[nH]c(=O)c3n2)cc1)C(=O)O)C(=O)O)NC(=O)CC[C@H](NC(=O)c1ccc(NCc2cnc3nc(N)nc(N)c3n2)cc1)C(=O)O	item: periarticular inflammation	Lewis rat, adjuvant-induced arthritis	500 nmol/kg twice weekly × 2	direction not given	histological score decrease	~84%
CCOC(=O)c1cc2c(N)c(C(=O)OC)sc2nc1C		Sprague-Dawley rats	subcutaneous, 25, 50, 100 mg/kg	baseline: vehicle	urinary urea concentration	decreased

Repeated from above:
SMILES	test	system	conditions	scale	quantity	result
CSCC[C@@H]1NC(=O)[C@H](CCCCN)NC(=O)[C@H]([C@@H](C)O)NC(=O)[C@H](CCCCN)NC(=O)[C@H](CC(C)C)NC(=O)[C@H](CCCCN)NC(=O)[C@H](CCCNC(=N)N)NC(=O)[C@@H]2CSSC[C@@H]3NC(=O)[C@@H]4CCCN4C(=O)[C@H](C(C)C)NC(=O)[C@H](CCC(N)=O)NC(=O)[C@H](CCC(N)=O)NC(=O)CNC(=O)[C@H](CC(C)C)NC(=O)[C@@H]4CSSC[C@H](NC(=O)[C@H]([C@@H](C)O)NC(=O)[C@H](C)NC(=O)[C@H](CSSC[C@@H](C(=O)N[C@@H](CO)C(=O)N[C@@H](CCCNC(=N)N)C(=O)N[C@H](C(N)=O)[C@@H](C)O)NC(=O)[C@@H]5CCCN5C(=O)[C@H](CC(N)=O)NC1=O)NC(=O)[C@@H]1CCCN1C(=O)[C@H](CC(=O)O)NC(=O)[C@H](CSSC[C@H](NC(=O)[C@H](CCCNC(=N)N)NC(=O)[C@H](CCCNC(=N)N)NC(=O)[C@H](CO)NC(=O)[C@@H](N)CO)C(=O)N[C@@H](C(C)C)C(=O)N[C@@H](CCCNC(=N)N)C(=O)N[C@@H](CC(C)C)C(=O)N[C@@H](Cc1c[nH]cn1)C(=O)N[C@@H](CCC(=O)O)C(=O)N[C@@H](CO)C(=O)N4)NC3=O)C(=O)N[C@@H](Cc1ccc(O)cc1)C(=O)N[C@H]1CSSC[C@H](NC(=O)[C@H](Cc3ccccc3)NC(=O)[C@H](C)NC(=O)[C@H](CC(N)=O)NC(=O)[C@H](Cc3ccccc3)NC(=O)[C@H](Cc3ccccc3)NC(=O)[C@H](CCCNC(=N)N)NC1=O)C(=O)N[C@@H](Cc1ccc(O)cc1)C(=O)N2		Long-Evans rat, male	intracerebroventricular, 1.0 nmol, 5 days		body weight change	25.2 ± 3.5 g
NS(=O)(=O)NCC(F)(F)c1ccccc1F	6 Hz seizures	mouse	intraperitoneal		ED50	19 mg/kg
